Measurements pooled from the literature.
Each line is one published result; not all experiments were run side by side. Numbers after ± are the reported error.

SMILES	test	system	conditions	how to read	quantity	value
CC(C)n1c(Nc2cccnc2)nc2cnc(Nc3ccc(N4CCN(C)CC4)cc3)nc21	refers to: γ-glutamyltransferase increased	healthy male subjects	oral, 150 mg, study, together with: rifampin	–	subjects with adverse event	0%
NC1(C(=O)N[C@@H](CCO)c2ccc(Cl)cc2)CCN(c2nc[nH]c3nccc2-3)CC1	–	metastatic CRPC patients	480 mg b.i.d., any grade, treatment-related, together with: enzalutamide 160 mg daily	–	incidence of Hyper-glycaemia	60%
c1ccc2c(c1)ccc1ccccc12	–	polyethylene-water partitioning	PAH compilation	–	literature range of log K	4.04 to 4.78 log units
CN(C(=O)n1cnc(-c2cccnc2)c1)C1CCCCC1	–	Wistar rat, pons	oral, 10 mg/kg/day of BIA 10-2474, 72 h, repeated 5 days	–	concentration	8 ± 0.2 ng/g
CNCCOC12CC3(C)CC(C)(CC(Cn4ncc(-c5ccc(N6CCc7cccc(C(=O)Nc8nc9ccccc9s8)c7C6)nc5C(=O)O)c4C)(C3)C1)C2	–	anaesthetised male beagle dogs	intravenous bolus, 0.03 mg/kg, 45 min	reference: baseline	systemic vascular resistance change	10%
COc1ccc2c(c1)CN(C(=O)CCN1CCC(Cc3ccccc3)CC1)CC[S@@+]2[O-]	–	anesthetized male beagle dogs, plasma	intravenous, 2 mg/kg total over 30 min, end of infusion	–	unbound plasma concentration	0.47 µM
OCC1=C[C@@H](O)[C@@H]2C=CO[C@@H](O[C@@H]3O[C@H](CO)[C@@H](O)[C@H](O)[C@H]3O)[C@H]12	post-procedure stability	rat plasma	200 ng/mL, 1 h, room temperature	–	accuracy	94%
CCOC(=O)[C@H](CCc1ccccc1)N[C@@H](C)C(=O)N1[C@H](C(=O)O)C[C@H]2CCCC[C@@H]21	–	processed human plasma	1000 pg/mL, 48 h, 4 °C	reference: nominal	autosampler stability	103 ± 7.8%
CCN1/C(=C/C(C)=O)Sc2ccc(F)cc21	–	cynomolgus monkey	oral, 100 mg/kg, 4 h post-dose	–	QTc interval (Bazett)	331 ± 6 ms
Cc1ccc([C@@H]2O[C@H](CO)[C@@H](O)[C@H](O)[C@H]2O)cc1Cc1ccc(-c2ccc(F)cc2)s1	–	Japanese type 2 diabetes patients	400 mg, day 15, 24 h urine collection	reference: baseline	urinary potassium excretion change	1.5 mEq
COc1cc(C(=O)N2CCC3(CC2)CC(=O)c2c(cnn2C(C)C)C3)cc(-c2ccc(C(=O)O)cc2)n1	refers to: total cholesterol	human, fasting serum	100 mg every 12 h, day 13, adjusted geometric mean	reference: baseline and placebo	placebo-adjusted change from baseline	-9.5%
C[C@@H]1COCCN1c1cc(C2([S@](C)(=N)=O)CC2)nc(-c2cc[nH]c3nccc2-3)n1	–	Japanese advanced solid tumour patients	oral, 160 mg twice daily, CTCAE grade ≥3	–	Pruritus incidence	0%
Cc1ccc(Sc2ccccc2N2CCNCC2)c(C)c1	refers to: postural dizziness	healthy adult women	oral, 5 mg daily, 12 days	–	participants with TEAE	0%
O=C(COc1ccc(Cl)cc1)NC12CC(c3nnc([C@H]4C[C@@H](OC(F)(F)F)C4)o3)(C1)C2	–	healthy human volunteers fasted, plasma	oral, 100 mg single dose, arithmetic mean	–	AUC	88.6 µM·h
O=C(Cc1ccc2ccccc2c1)Nc1cc(C2CCC2)[nH]n1	–	mouse plasma	375 ng/mL, -80 °C, freeze-thaw stability, together with: 3 freeze-thaw cycles	–	accuracy	100%
CC(C)n1c(C2CCNCC2)nc2c([N+](=O)[O-])c(Br)c(Br)cc21	–	human, urine	oral, 150 mg single dose	–	renal clearance median	9.5 mL/min
CNC(=O)c1cc(Oc2ccc(NC(=O)Nc3cc(C(C)(C)C)nn3-c3ccc4ncccc4c3)c(F)c2)ccn1	refers to: worst grade 3	human	oral, dose not given, cycles 1 and 2, Medium Cmax subgroup	–	patients with any AE of special interest	27%
C[Si]1(C)O[Si](C)(C)O[Si](C)(C)O[Si](C)(C)O1	–	air/water	concentration not given	–	entropy of phase change	0.3 kJ/(mol·K)
COc1ccc2nc([S@@+]([O-])Cc3ncc(CO)c(OC)c3C)[nH]c2c1	–	human	concentration not given, control session	reference: (R)-OH-omeprazole over compound	AUC ratio	11 fold

SMILES	test	system	conditions	how to read	quantity	value
CC(C)[C@H](C(=O)Nc1ccc(C(=O)NO)cc1)c1ccccc1	–	whole blood	10.0 ng/mL, 3 h, 4 °C, stability on ice	–	accuracy	100%
C[C@@H](N)C1CCN(S(=O)(=O)c2cccc3cnccc23)CC1	–	healthy volunteers	25 mg, fasted	–	participants with hypotension	0%
N#Cc1ccc2c(c1)[C@H]1CCCN(C(=O)c3ccc4[nH]cnc4c3)[C@H]1C2	–	human	40 mg, end of trial	–	median ACTH level	4.5 pmol/L
CNC(=O)c1ccc(-c2cnc3ncc(Cc4ccc5ncccc5c4)n3n2)cc1F	–	Japanese patients	oral, 400 mg, any grade	–	Pneumonitis treatment discontinuation	2%
Cn1cc(-c2cn3nccc3c(-c3cnn([C@]4(CC#N)C[C@@H](C#N)C4)c3)n2)cn1	–	human, urine	oral, 400 mg once daily, day 10, dosing interval geometric mean	–	amount excreted unchanged in urine	3.1 mg
C[C@@H](Oc1ccc(S(C)(=O)=O)cc1C(=O)N1C[C@@H]2C[C@]2(c2cc(C(F)(F)F)on2)C1)C(F)(F)F	–	elderly humans, urine	oral, 25 mg once daily, 0-24 h, multiple dose, geometric mean	–	renal clearance at steady state	5.26 mL/min
CCCCC[C@H](O)CC[C@@H]1[C@H]2Cc3cccc(OCC(=O)O)c3C[C@H]2C[C@H]1O	LC-MS/MS	Japanese PAH patients ≥56.7 kg, plasma	inhaled, 54 µg	–	geometric mean Cmax	0.0007 µg/mL
NC[C@@]1(CC(=O)O)[C@@H]2CC[C@H]3C[C@@H]2[C@@H]1C3	–	human, severe renal impairment, plasma	dose not given, geometric mean	–	unbound AUC(0-t)	5.85 µg·h/mL
Cc1c(-c2ccc(N3CCc4cccc(C(=O)Nc5nc6ccccc6s5)c4C3)nc2C(=O)O)cnn1CC12CC3(C)CC(C)(C1)CC(OCCNCC[C@H](O)CO)(C3)C2	–	beagle dog, male, anaesthetised	intravenous infusion, 0.3 mg/kg/min, 105 min	reference: vehicle	dP/dt at 50 change	-33%
O=C(O)CCC(=O)O.[2H]C([2H])([2H])Oc1cc(C)c2[nH]ccc2c1CN1CC[C@@H](C2CC2)C[C@H]1c1ccc(C(=O)O)cc1	multiple ascending dose	healthy Chinese subjects	125 mg twice daily	–	subjects with TEAE Appendicitis	0%
COCCOc1cnc2ccn([C@H](C)c3nnc4c(F)cc(-c5cnn(C)c5)cn34)c(=O)c2c1	–	patients	oral, 300 mg once daily, day 1, 24 h postdose, dose escalation	–	Ctrough	0.4 µg/mL
Cn1cc(Nc2nccc(-c3ccc4c(c3)CN(C3COC3)CC[C@H]4NC(=O)c3cn(C(C)(C)C)nn3)n2)cn1	refers to: CD8+ T cell count	human, clinical trial, whole blood	50 mg twice daily, follow-up	–	percent change from baseline	-5.96%
C[C@@](Cc1ccc(O)c(O)c1)(NN)C(=O)O	–	Parkinson's disease patients, plasma	oral, dose not given, 3 h, low levodopa Cmax subgroup (<9 µmol/L), median	–	AUC(0-t)	0.36 µM·h
FC(F)(F)c1ccc(CNc2ccc(Cc3c[nH]c4ncc(Cl)cc34)cn2)cn1	refers to: Hypertension	patients with advanced solid tumours, non-TGCT cohort	oral, 1000 mg/day, any grade	–	treatment-related adverse events	2%
O=C(O)C1=CO[C@@H](O[C@@H]2O[C@H](CO)[C@@H](O)[C@H](O)[C@H]2O)[C@@H]2C(CO)=CC[C@H]12	–	rat plasma	1000 ng/mL, 2 weeks, -70 °C, post-preparative stability	–	accuracy	93%
Cc1ccc(C(=O)N(CCCN)C(c2nc3snc(C)c3c(=O)n2Cc2ccccc2)C(C)C)cc1 (centres unmarked)	stomatitis grade ≥3 (CTCAE)	human patients	intravenous, 10 mg/day	–	patients with adverse event	0%
c1cc2ccc3ccc4ccc5cccc6c(c1)c2c3c4c56	–	polyethylene-water partitioning	PAH compilation	reference: maximum over minimum K	literature range factor	35
CCc1cc(C(=O)NC)c2nccc(N3CCc4c(cc(Cn5ccnc5)cc4-c4cn(C)nc4C(F)(F)F)C3=O)c2c1	–	Sprague Dawley rats	oral, 100 mg/kg twice daily, 7 days	–	serum ALT activity	57.3 ± 2.87 U/L
C[C@H]1CN(C(=O)CC#N)[C@]12CCN(c1ncnc3[nH]ccc13)C2	–	healthy adult humans	oral, 1.5 mg single dose	–	participants with TEAEs	25%

SMILES	test	system	conditions	how to read	quantity	value
Cc1cc(-c2nccc3c2ccn3CC(=O)Nc2ccc(-c3cnccn3)cn2)ccn1	–	human	MAD part, 20 mg once daily	–	subjects with TEAE leading to discontinuation	0%
CC1(C)CCC(CN2CCN(c3ccc(C(=O)NS(=O)(=O)c4ccc(NCC5CCOCC5)c([N+](=O)[O-])c4)c(Oc4cnc5[nH]ccc5c4)c3)CC2)=C(c2ccc(Cl)cc2)C1	–	patients on VA-based chemotherapy	oral, dose not given, together with: triazole antifungals	reference: without triazoles	C0/D fold change	1
CCn1cc(C(=O)N2CCOCC2)c(=O)c2cc(NC3Cc4ccccc4C3)cnc21	–	human, fasted	oral suspension, 2000 mg single dose, arithmetic mean	–	AUC(0-last)	5.19 µg·h/mL
[18F]c1ccc(-c2ccc3c(c2)[nH]c2ccncc23)cn1	microPET/CT imaging	B6SJL mouse, normal, brain	intravenous, 20 min	–	SUV	0.602 ± 0.118
C/C(=N\c1ccc(O)cc1)c1cc2ccccc2n1C	–	processed rat plasma sample	50 ng/mL, 24 h, room temperature, autosampler tray	reference: nominal	remaining compound	96.3 ± 1.6%
Cc1cc(NC2CCN(C(=O)OC3CCN(C(=O)/C=C/CN(C)C)C3)CC2)n2ncc(C(C)C)c2n1 (centres unmarked)	Phase I dose escalation CTCAE v4.0, refers to: decreased appetite	patients with advanced solid tumours	dose not given, QD dosing grade 3 or higher	–	patients with adverse event	2%
Cc1cc(C)c(CNC(=O)c2cc(Cl)c3c(c2C)O[C@@](C)([C@H]2CC[C@H](N(C)C)CC2)O3)c(=O)[nH]1	refers to: Pruritus	human patients	oral, 200 mg once daily, 1 day onset day 14	–	patients with TEAE	4.2%
O=C(Nc1nc2cccc(-c3ccc(CN4CCS(=O)(=O)CC4)cc3)n2n1)C1CC1	refers to: regurgitation	rheumatoid arthritis patients	oral, 150 mg once daily, 4 weeks, any relatedness	–	treatment-emergent adverse events	0%
Cc1cc(-c2nnc(N)nc2-c2ccc(F)cc2)cc(Cl)n1	refers to: diarrhea, any grade	IO-naive patients with other tumours	oral, 100 mg	–	incidence of treatment-related AE	21.1%
CCCCC1=NC2(CCCC2)C(=O)N1Cc1ccc(-c2ccccc2S(=O)(=O)Nc2noc(C)c2C)c(COCC)c1	–	healthy adult volunteers, plasma	oral, 100 mg, single dose, fed, crushed tablet	–	Cmax	2.31 µg/mL
CC[C@H](C)[C@H](NC(=O)CN)C(=O)N[C@@H](CC(C)C)C(=O)N[C@@H](CC(=O)O)C(=O)N[C@@H](C)C(=O)N[C@H](C(=O)N[C@@H](CCCCN)C(=O)N[C@@H](C)C(=O)N[C@H](C(=O)N[C@@H](C)C(=O)N[C@@H](CCCCN)C(=O)N[C@@H](C)C(=O)N[C@@H](C)C(=O)NCC(N)=O)[C@@H](C)CC)[C@@H](C)CC	circular dichroism	10 mM SDS	100 µM	–	helix content	13%
CNC(=O)c1ccc(-c2cnc3ncc(Cc4ccc5ncccc5c4)n3n2)cc1F	–	HCC patients	oral, 600 mg twice daily, all grades RP2D expansion	–	abdominal distension incidence	9%
Cc1cc([C@H]2C[C@H]3[C@@H](C)SC(N)=N[C@@]3(c3ccc(F)cc3F)CO2)on1	–	male 129/SVE mouse, brain	subcutaneous, 50 mg/kg, 9 h	–	brain concentration	0.201 µM
COC(=O)C1=CO[C@@H](O[C@@H]2O[C@H](CO)[C@@H](O)[C@H](O)[C@H]2O)[C@@H]2C(CO)=CC[C@H]12	–	rat plasma	1000 ng/mL, 2 weeks, -70 °C, post-preparative stability	–	accuracy	90.8%
COc1cc(Nc2ncc3c(n2)-c2ccc(Cl)cc2C(c2c(F)cccc2OC)=NC3)ccc1C(=O)O	refers to: Dyspnea, grade 1	cancer patients, phase 1/2	oral, dose not given, together with: pembrolizumab	–	patients with adverse event	8%
CNC(=O)c1ccc(-c2cnc3ncc(Cc4ccc5ncccc5c4)n3n2)cc1F	–	human severe hepatic impairment NCI	oral, 200 mg single dose, mean	–	AUC(0-t)	5.3 µg·h/mL
O=C(O)c1cccc(C(=O)O)c1	–	betaine/ethylene glycol DES-water	DES mass fraction 0.80	–	apparent dissolution enthalpy	24.4 kJ/mol
C=CC(=O)NC1CCN(c2ncc3ncnc(Nc4ccc(Oc5ccc6c(c5)ncn6C)c(C)c4)c3n2)CC1	refers to: dry mouth	human male	oral, dose not given, AEs, treatment-related, on drug, CTCAE	–	adverse events incidence	0%

Repeated from above:
SMILES	test	system	conditions	how to read	quantity	value
Cc1c(-c2ccc(N3CCc4cccc(C(=O)Nc5nc6ccccc6s5)c4C3)nc2C(=O)O)cnn1CC12CC3(C)CC(C)(C1)CC(OCCNCC[C@H](O)CO)(C3)C2	–	beagle dog, male, anaesthetised	intravenous infusion, 0.3 mg/kg/min, 105 min	reference: vehicle	dP/dt at 50 change	-33%
CC1(C)CCC(CN2CCN(c3ccc(C(=O)NS(=O)(=O)c4ccc(NCC5CCOCC5)c([N+](=O)[O-])c4)c(Oc4cnc5[nH]ccc5c4)c3)CC2)=C(c2ccc(Cl)cc2)C1	–	patients on VA-based chemotherapy	oral, dose not given, together with: triazole antifungals	reference: without triazoles	C0/D fold change	1
CCN1/C(=C/C(C)=O)Sc2ccc(F)cc21	–	cynomolgus monkey	oral, 100 mg/kg, 4 h post-dose	–	QTc interval (Bazett)	331 ± 6 ms
C/C(=N\c1ccc(O)cc1)c1cc2ccccc2n1C	–	processed rat plasma sample	50 ng/mL, 24 h, room temperature, autosampler tray	reference: nominal	remaining compound	96.3 ± 1.6%
O=C(O)CCC(=O)O.[2H]C([2H])([2H])Oc1cc(C)c2[nH]ccc2c1CN1CC[C@@H](C2CC2)C[C@H]1c1ccc(C(=O)O)cc1	multiple ascending dose	healthy Chinese subjects	125 mg twice daily	–	subjects with TEAE Appendicitis	0%
Cn1cc(Nc2nccc(-c3ccc4c(c3)CN(C3COC3)CC[C@H]4NC(=O)c3cn(C(C)(C)C)nn3)n2)cn1	refers to: CD8+ T cell count	human, clinical trial, whole blood	50 mg twice daily, follow-up	–	percent change from baseline	-5.96%
